{"data": "Assay results collected from several papers", "note": "Every numbered part comes from another study and shows a few of its results, in no order."}
{"data": "Sample 1", "target": "Phosphate system positive regulatory protein PHO4, full length, GST-tagged (PHO4, Saccharomyces cerevisiae, UniProt P07270, residues 1-312)", "technique": "competition protein-binding microarray", "form": "double-stranded DNA, one strand shown", "medium": "in vitro", "tested at": "2 µM", "notes": "whole 60-bp probe, lowest competitor level", "added": "Cbf1 competitor, 0.05 µM", "reading": "higher = stronger binding", "Residues (chain)": "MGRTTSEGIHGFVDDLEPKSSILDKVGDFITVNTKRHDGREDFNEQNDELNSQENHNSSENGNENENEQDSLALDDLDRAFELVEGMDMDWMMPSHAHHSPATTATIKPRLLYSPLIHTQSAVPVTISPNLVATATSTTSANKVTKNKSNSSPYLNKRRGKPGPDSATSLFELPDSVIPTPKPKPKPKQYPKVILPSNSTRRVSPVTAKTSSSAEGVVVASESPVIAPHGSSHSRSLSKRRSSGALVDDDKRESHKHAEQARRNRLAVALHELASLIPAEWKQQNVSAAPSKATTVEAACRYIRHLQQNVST"}
{"Strand": "ACATACGCATATTTGCACGTACAAGATAAAAAAAGCGTCTTGATTCGCTTGACGCTGCTG", "fluorescence intensity [a.u.]": 6980}
{"Strand": "AAATTACTAAGTTTTCACGTGGCATACCCCGTATGAGTCTTGATTCGCTTGACGCTGCTG", "fluorescence intensity [a.u.]": 14400}
{"Strand": "CATACCCAACCTTGGAGCGTGGGTGAAGATATTTGTGTCTTGATTCGCTTGACGCTGCTG", "fluorescence intensity [a.u.]": 7950}
{"Strand": "CCTCTTTTTCACCCGATTATTTTCATTTATTAGTAAGTCTTGATTCGCTTGACGCTGCTG", "fluorescence intensity [a.u.]": 4490}
{"data": "Sample 2", "target": "RNA binding protein fox-1 homolog 2, RRM domain, GST-SBP tag (RBFOX2, Homo sapiens, UniProt O43251-10, residues 100-194)", "technique": "RNA Bind-n-Seq", "form": "RNA", "medium": "in vitro", "tested at": "365 nM", "notes": "natural RNA segment, single round, ends assumed", "reference": "no-protein control", "reading": "higher = stronger binding", "shared flanks, not repeated": "GGGAGUUCUACAGUCCGACGAUC … UGGAAUUCUCGGGUGCCAA"}
{"Strand": "CAAUGAAGAAGGUCUCAUUAUCUCCAUGAUAAAGAUGGGGAAACUAAGGUCAGAAGGGUUAACUCAACUGUCUAUUGUCACAUGAUGAAUAAAUAGAUGAAGUGAGAUAC", "RBNS enrichment (R)": 0.361}
{"Strand": "UAGUUGCAGUCACUUCAGGUCUCUCCCUCGGGUUCCCUUAGGAUGCAAGCACAAGAACAGACACCUGGUCAGCAUGGUGCUGAAACCCCUUUCUCUUCACUGUCAUGGUG", "RBNS enrichment (R)": 4.78}
{"Strand": "AAUAGAAGUAUUAAAAAGAAUCAUCCUUUAAAUCACAGAUCUUAUUUUGAGAUUAAAAAAAAUACUUCUAGCUUUAGCCAGGUGUGCAUGUUGCUGCCAUUUUGCAUUUU", "RBNS enrichment (R)": 3.39}
{"Strand": "UUGACAGUUGUUCAUUAGCGCACAGUGCCAGAAUGCACACUGAGGUGAGUCUCCUGGAACAGUGGAGAUGCCAGGAGAAAGAAAGACAGGUACUAGCUGAGGUUAUUUUA", "RBNS enrichment (R)": 2.09}
{"Strand": "UCUCCUUGAGCAUUGAGUACAGUACAUUUUGGAAGCUUGAAACCAAAAUUAAAGAGAGAGAGCGAGAACCUGUUUCUGCUUGGCCUGUUUUAUCCGAAAUAUGAAACCUC", "RBNS enrichment (R)": 0.918}
{"Strand": "CUUCAUAUCCACCAAGCAGACAUAACCUAAGGAAUGUUAGUCCACUGAGCAGUUAAAAAACACUGACAUAUUGCUUCCCUCAUGAAGUAAACGAUACAGGGAACUGGUUG", "RBNS enrichment (R)": 0.448}
{"data": "Sample 3", "target": "Histone acetyltransferase KAT6A, winged helix 1, GST fusion (KAT6A, Homo sapiens, UniProt Q92794, residues 1-85)", "technique": "protein binding microarray", "form": "double-stranded DNA, one strand shown", "medium": "in vitro", "tested at": "not given", "notes": "8-mer, flanks averaged, mean of 2 arrays, mostly near background", "reference": "not given", "reading": "higher = stronger binding", "Target sequence (chain)": "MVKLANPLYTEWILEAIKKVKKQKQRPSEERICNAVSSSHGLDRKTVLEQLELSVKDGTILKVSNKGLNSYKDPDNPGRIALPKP"}
{"Strand": "GCATATCC", "E-score": -0.0252}
{"Strand": "AGAAGTGC", "E-score": -0.143}
{"Strand": "CAATACGA", "E-score": -0.0722}
{"data": "Further values, each from its own experiment"}
{"Substance": "PhoQ, residues 284 288 289 292 302 303 TASMAF", "target": "PhoP, residues 12 14 15 18 19 LHSVQ (Escherichia coli, UniProt P23836)", "assay": "Sort-seq, item: YFP reporter", "test system": "E. coli", "conditions": "PhoQ-PhoP variant library, added: 10 µM Mg2+", "how to read": "reference: high Mg2+ state, higher = stronger signaling", "quantity": "fold induction", "result": 10}
